{"data": "Assay results of several laboratories", "DDR2": "Discoidin domain-containing receptor 2 (DDR2, Homo sapiens, UniProt Q16832)", "VKORC1": "Vitamin K epoxide reductase complex subunit 1 (VKORC1, Homo sapiens, UniProt Q9BQB6)", "Gria2": "Glutamate receptor 2 (Gria2, Rattus norvegicus, UniProt P19491)", "CDK4": "Cyclin-dependent kinase 4 (CDK4, Homo sapiens, UniProt P11802)", "MARS2": "Methionine--tRNA ligase, mitochondrial (MARS2, Homo sapiens, UniProt Q96GW9)", "GNRHR": "Gonadotropin-releasing hormone receptor (GNRHR, Homo sapiens, UniProt P30968)", "note": "Each line is one published result; not all experiments were run side by side. Numbers after ± are the reported error.", "sequence of UniProt P11802 (whole entry, looked up)": "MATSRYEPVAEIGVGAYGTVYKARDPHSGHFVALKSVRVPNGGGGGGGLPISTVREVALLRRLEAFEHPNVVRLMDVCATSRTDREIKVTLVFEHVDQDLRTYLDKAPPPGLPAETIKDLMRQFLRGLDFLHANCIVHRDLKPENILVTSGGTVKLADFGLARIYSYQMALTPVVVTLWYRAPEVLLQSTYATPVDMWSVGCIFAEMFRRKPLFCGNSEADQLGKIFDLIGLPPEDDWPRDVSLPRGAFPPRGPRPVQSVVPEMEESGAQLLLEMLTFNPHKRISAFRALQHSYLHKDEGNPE", "sequence of UniProt Q9BQB6 (whole entry, looked up)": "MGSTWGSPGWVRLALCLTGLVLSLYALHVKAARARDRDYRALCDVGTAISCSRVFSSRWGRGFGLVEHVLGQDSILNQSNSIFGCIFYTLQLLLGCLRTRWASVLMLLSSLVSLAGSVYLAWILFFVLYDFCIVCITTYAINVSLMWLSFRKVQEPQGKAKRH", "sequence of UniProt P30968 (whole entry, looked up)": "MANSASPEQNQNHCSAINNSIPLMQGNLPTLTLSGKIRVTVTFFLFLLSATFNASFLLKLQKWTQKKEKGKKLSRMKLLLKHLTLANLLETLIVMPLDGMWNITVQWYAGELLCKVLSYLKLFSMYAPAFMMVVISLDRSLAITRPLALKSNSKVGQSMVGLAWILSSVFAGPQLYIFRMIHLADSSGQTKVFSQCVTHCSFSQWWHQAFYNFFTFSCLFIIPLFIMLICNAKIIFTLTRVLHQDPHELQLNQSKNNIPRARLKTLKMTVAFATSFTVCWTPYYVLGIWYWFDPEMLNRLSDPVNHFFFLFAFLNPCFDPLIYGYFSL", "sequence of UniProt Q96GW9 (whole entry, looked up)": "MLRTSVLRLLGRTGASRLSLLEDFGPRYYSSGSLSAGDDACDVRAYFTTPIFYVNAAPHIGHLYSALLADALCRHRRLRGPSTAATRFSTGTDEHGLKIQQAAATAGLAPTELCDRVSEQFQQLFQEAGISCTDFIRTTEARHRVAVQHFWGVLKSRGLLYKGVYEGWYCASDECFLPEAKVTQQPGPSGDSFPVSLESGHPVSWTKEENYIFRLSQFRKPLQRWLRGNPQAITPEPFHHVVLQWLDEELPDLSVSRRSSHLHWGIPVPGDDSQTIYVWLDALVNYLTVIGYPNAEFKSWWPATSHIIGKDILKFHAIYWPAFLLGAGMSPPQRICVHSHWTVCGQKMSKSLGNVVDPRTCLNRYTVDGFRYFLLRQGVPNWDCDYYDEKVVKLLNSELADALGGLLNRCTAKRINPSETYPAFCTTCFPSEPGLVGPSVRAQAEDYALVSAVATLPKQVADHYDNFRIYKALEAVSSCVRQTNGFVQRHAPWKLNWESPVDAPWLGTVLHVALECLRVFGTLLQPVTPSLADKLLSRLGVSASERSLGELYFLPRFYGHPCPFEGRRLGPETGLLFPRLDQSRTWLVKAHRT", "sequence of UniProt P19491 (whole entry, looked up)": "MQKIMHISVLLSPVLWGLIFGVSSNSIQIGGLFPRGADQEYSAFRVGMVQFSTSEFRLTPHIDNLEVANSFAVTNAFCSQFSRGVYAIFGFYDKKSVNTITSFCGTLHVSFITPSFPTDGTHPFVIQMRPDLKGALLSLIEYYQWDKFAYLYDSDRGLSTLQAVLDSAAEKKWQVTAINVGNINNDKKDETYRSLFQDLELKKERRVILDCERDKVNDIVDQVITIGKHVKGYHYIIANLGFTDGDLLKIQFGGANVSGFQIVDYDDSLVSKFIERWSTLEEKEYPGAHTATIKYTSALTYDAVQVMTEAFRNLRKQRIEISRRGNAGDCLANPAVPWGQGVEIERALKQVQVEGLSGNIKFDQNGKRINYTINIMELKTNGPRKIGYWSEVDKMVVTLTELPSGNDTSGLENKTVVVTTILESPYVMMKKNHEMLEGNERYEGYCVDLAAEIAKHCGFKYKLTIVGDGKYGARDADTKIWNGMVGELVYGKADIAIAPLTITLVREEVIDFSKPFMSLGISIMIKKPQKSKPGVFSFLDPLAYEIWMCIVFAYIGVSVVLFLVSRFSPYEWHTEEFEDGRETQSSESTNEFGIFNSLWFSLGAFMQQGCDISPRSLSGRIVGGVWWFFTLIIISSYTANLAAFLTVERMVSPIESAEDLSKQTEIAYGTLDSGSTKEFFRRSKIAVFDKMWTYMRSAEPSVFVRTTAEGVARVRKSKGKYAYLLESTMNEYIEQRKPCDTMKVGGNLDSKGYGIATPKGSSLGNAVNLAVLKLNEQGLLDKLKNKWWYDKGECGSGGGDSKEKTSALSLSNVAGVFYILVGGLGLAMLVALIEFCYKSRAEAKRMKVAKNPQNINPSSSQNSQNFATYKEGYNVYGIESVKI", "sequence of UniProt Q16832 (whole entry, looked up)": "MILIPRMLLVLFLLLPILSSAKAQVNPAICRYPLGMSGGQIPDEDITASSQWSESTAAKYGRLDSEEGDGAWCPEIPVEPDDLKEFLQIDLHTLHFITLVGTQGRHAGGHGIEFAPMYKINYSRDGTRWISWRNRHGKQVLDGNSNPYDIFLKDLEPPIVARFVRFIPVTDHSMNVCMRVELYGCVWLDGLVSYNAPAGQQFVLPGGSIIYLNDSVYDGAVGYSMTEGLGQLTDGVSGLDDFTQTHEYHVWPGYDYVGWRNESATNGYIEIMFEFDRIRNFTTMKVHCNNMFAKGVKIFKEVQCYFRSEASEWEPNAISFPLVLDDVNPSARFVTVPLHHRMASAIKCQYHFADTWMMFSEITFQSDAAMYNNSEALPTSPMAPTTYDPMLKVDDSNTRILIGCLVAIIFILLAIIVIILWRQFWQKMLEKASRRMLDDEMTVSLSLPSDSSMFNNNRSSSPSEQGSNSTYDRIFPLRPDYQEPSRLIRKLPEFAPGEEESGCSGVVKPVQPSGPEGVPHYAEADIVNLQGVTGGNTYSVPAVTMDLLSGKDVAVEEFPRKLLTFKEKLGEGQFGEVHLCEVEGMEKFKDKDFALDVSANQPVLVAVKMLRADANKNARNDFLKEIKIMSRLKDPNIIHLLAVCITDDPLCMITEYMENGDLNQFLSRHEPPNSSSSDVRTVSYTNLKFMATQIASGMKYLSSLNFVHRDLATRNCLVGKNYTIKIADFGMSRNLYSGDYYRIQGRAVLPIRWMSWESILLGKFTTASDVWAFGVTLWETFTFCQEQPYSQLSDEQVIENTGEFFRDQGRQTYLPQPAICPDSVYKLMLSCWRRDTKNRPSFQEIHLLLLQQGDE", "sequence of UniProt P35346 (whole entry, unmodified, looked up)": "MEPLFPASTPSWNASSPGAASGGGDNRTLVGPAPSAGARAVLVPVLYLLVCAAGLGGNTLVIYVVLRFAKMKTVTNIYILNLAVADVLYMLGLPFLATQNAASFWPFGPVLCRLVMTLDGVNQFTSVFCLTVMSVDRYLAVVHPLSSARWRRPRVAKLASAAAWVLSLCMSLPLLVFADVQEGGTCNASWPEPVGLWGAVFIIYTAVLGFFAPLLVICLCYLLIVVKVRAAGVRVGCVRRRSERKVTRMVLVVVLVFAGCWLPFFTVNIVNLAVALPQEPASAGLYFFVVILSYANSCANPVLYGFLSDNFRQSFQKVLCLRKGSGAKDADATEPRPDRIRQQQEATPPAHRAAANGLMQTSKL", "sequence of UniProt Q9UIQ6 (whole entry, looked up)": "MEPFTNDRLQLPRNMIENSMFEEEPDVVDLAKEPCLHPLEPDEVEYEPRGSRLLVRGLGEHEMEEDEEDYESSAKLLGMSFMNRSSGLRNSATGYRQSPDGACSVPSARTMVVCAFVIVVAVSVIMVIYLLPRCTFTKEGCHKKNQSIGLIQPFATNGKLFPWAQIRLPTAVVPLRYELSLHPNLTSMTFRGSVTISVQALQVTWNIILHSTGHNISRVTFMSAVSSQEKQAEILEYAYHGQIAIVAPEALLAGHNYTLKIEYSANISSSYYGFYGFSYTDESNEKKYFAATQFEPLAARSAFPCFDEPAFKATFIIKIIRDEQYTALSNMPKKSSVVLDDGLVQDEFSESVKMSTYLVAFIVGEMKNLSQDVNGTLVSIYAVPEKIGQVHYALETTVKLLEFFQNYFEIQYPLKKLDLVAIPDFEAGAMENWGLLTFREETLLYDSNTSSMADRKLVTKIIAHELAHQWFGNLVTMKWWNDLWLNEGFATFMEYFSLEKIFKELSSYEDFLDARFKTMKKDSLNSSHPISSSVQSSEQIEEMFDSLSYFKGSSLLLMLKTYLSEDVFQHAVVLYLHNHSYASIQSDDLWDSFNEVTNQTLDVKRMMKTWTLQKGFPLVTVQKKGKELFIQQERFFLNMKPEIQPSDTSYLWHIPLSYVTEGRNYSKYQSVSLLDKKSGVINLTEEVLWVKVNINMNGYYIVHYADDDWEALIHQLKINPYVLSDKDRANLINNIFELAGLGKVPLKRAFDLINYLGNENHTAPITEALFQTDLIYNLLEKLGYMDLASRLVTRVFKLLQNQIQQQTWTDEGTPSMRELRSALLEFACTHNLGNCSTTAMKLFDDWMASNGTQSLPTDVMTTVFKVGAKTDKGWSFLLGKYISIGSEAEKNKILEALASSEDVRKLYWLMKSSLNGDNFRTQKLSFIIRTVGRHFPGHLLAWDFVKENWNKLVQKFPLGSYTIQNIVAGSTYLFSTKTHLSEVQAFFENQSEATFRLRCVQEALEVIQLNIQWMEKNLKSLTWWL", "sequence of UniProt Q96KS0 (whole entry, looked up)": "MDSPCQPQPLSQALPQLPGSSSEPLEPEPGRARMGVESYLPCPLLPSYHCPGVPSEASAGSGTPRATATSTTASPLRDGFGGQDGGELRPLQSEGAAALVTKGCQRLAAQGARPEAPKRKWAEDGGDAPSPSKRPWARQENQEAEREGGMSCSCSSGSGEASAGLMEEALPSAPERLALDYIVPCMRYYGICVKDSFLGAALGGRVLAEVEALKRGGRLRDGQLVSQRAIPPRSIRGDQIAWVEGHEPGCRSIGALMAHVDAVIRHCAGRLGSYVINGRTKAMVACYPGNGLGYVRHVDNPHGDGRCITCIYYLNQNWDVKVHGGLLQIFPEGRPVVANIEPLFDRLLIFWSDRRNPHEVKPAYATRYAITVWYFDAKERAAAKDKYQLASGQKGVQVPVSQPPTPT"}
{"Compound": "O=C(CN1CN(c2ccc(Cl)c(Cl)c2)C2(CCN(C(=O)c3ccc4[nH]ncc4c3)CC2)C1=O)NCC(F)(F)F", "target": "DDR2", "test": "ligand displacement", "IC50": "28600 nM"}
{"Compound": "O=C(Cn1ncc2cccn2c1=O)N1CCCC1", "target": "VKORC1", "test": "carboxylation, inhibitor, cell-based", "IC50": "32600 nM"}
{"Compound": "Nc1n[nH]c2cc(C(=O)N3CCC4(CC3)C(=O)N(CC(=O)NCC(F)(F)F)CN4c3ccccc3)ccc12", "target": "DDR2", "test": "ligand displacement", "IC50": "26000 nM"}
{"Compound": "C[C@H](Cn1nnc2ccccc21)NC(=O)Cn1cnc2ccccc2c1=O", "target": "VKORC1", "test": "carboxylation, inhibitor, cell-based", "IC50": "9000 nM"}
{"Compound": "O=C(O)Cc1cc2c(cc1C(=O)c1ccccc1Cl)OCO2", "target": "Gria2", "test": "glutamate-evoked current, inhibitor, whole-cell patch clamp", "system": "HEK293T, homomeric receptor", "IC50": "4070 nM"}
{"Compound": "CC(C)c1ccc(/C=C/C(=O)c2ccc(S(C)(=O)=O)cc2)cc1", "target": "Amine oxidase [flavin-containing] A (MAOA, Homo sapiens, UniProt P21397)", "test": "enzyme activity, inhibitor", "IC50": "> 40000 nM"}
{"Compound": "CCOc1cc(CN2CCC3(CC2)CN(c2ccc(C(=O)O)cc2)C(=O)N3)c(C2CC2)cc1C", "target": "Somatostatin receptor type 5 (SSTR5, Homo sapiens, UniProt P35346, D119A)", "test": "cAMP level, antagonist, GloSensor", "system": "AD293", "conditions": "D119A mutant, bandwidth 3.32, added: CST17 EC80 and forskolin", "IC50": "13.5 nM"}
{"Compound": "Cc1nn(-c2cccc(N)c2)c(=O)c2cnc(Nc3ccc(N4CCNCC4)cc3)nc12", "target": "Serine/threonine-protein kinase MARK1 (MARK1, Homo sapiens, UniProt Q9P0L2)", "test": "enzyme activity, inhibitor", "IC50": "> 10000 nM"}
{"Compound": "O=C(NCC1CCOCC1)c1n[nH]cc1NC(=O)c1c(F)cccc1F", "target": "Cyclin-dependent kinase-like 5 (CDKL5, Homo sapiens, UniProt O76039)", "test": "target engagement in cells, BRET", "IC50": "1400 nM"}
{"Compound": "CCCCCCN(O)C(=O)CCCCC[C@@H]1NC(=O)[C@H]([C@@H](C)CC)NC(=O)[C@H](Cc2ccccc2C(F)(F)F)NC(=O)CCSCc2cccc(n2)CSCCCNC1=O", "target": "Histone deacetylase 4 (HDAC4, Homo sapiens, UniProt P56524)", "test": "enzyme activity, inhibitor, fluorogenic", "IC50": "> 30000 nM"}
{"Compound": "Cc1nc2c(F)cc(-c3nc(Nc4ccc(CC(=O)NCCCCCC(=O)NO)cc4)ncc3F)cc2n1C(C)C", "target": "CDK4", "IC50": "1.1 nM"}
{"Compound": "O=C1C(Cl)=C(NCCN2CCOCC2)C(=O)c2ncccc21", "target": "Protein arginine N-methyltransferase 1 (PRMT1, Homo sapiens, UniProt Q99873)", "test": "enzyme activity, inhibitor", "IC50": "> 100000 nM"}
{"Compound": "C[C@@H](CNCc1cc(Cl)cc(Cl)c1)CNc1nc2cccnc2[nH]1", "target": "MARS2", "test": "enzyme activity, inhibitor", "IC50": "20 nM"}
{"Compound": "CC(C)(COP(=O)(O)OP(=O)(O)OC[C@H]1O[C@@H](n2cnc3c(N)ncnc32)[C@H](O)[C@@H]1OP(=O)(O)O)[C@@H](O)C(=O)NCCC(=O)NCCSCC(=O)N[C@@H](CO)C(=O)NCC(=O)N[C@@H](CCCNC(=N)N)C(=O)NCC(=O)N[C@@H](CCCCN)C(N)=O", "target": "N-alpha-acetyltransferase 40 (NAA40, Homo sapiens, UniProt Q86UY6)", "test": "enzyme activity, inhibitor, fluorescence", "IC50": "116 nM"}
{"Compound": "O=C(Nc1cccc(N2CCNCC2)c1)c1cc(-c2ccccc2)n(-c2ccccc2)n1", "target": "Genome polyprotein, NS2B-NS3 protease (dengue virus type 2, UniProt P29990)", "test": "enzyme activity", "conditions": "added: AMC substrate 50 µM", "IC50": "7900 nM"}
{"Compound": "CC(C)(C)OC(=O)N1CCN(c2ccc3c(O)c(C(=O)NCc4ccc(C#N)nc4)ncc3n2)CC1", "target": "Prolyl hydroxylase EGLN2 (EGLN2, Homo sapiens, UniProt Q96KS0)", "test": "enzyme activity, inhibitor, AlphaScreen", "conditions": "added: CODD peptide, Fe(II) 10 µM", "IC50": "1.2 nM"}
{"Compound": "CCCC[C@H](NC(=O)CNC(=O)CNC(=O)[C@H](CCCCNC(=O)[C@H](CC(N)=O)NC(=O)C(C)c1ccc(CC(C)C)cc1)NC(=O)CN1CCN(CC(=O)O)CCN(CC(=O)O)CCN(CC(=O)O)CC1)C(=O)N[C@H]1CC(=O)NCCCC[C@@H](C(N)=O)NC(=O)[C@H](Cc2c[nH]c3ccccc23)NC(=O)[C@H](CCCNC(=N)N)NC(=O)[C@@H](Cc2ccccc2)NC(=O)[C@H](Cc2c[nH]cn2)NC1=O (some centres unmarked)", "target": "Melanocyte-stimulating hormone receptor (Mc1r, Mus musculus, UniProt Q01727)", "test": "radioligand binding, competitor", "system": "B16-F10 mouse melanoma", "conditions": "2 h, 25 °C, added: radiolabelled NDP-MSH", "IC50": "0.03 ± 0.01 nM"}
{"Compound": "COC(=O)CCCCCCCNC(=O)Cc1ccc(Nc2ncc(F)c(-c3cc(F)c4nc(C)n(C(C)C)c4c3)n2)cc1", "target": "CDK4", "IC50": "3 nM"}
{"Compound": "CC(C)(C)n1ncc2c(=O)n(Cc3cccc(F)c3)c(NCc3ccc(F)cn3)nc21", "target": "Cytochrome P450 3A4 (CYP3A4, Homo sapiens, UniProt P08684)", "test": "enzyme activity, inhibitor", "system": "human liver", "IC50": "> 15000 nM"}
{"Compound": "O=C(NO)c1cncc(OS(=O)(=O)Oc2ccc(Oc3ccccc3)cc2)c1", "target": "Histone deacetylase 11 (HDAC11, Homo sapiens, UniProt Q96DB2)", "IC50": "2700 nM"}
{"Compound": "CCCC(=O)OC1CCC2(C)C(CCC3(C)C2CC=C2C4C(C)C(C)CCC4(C(=O)O)CCC23C)C1(C)C (centres unmarked)", "target": "UDP-glucuronosyltransferase 1A7 (UGT1A7, Homo sapiens, UniProt Q9HAW7)", "test": "enzyme activity, inhibitor", "IC50": "> 100000 nM"}
{"Compound": "O=C(O)Cc1cc2c(cc1C(=O)c1ccccc1)OCO2", "target": "Gria2", "test": "glutamate-evoked current, inhibitor, whole-cell patch clamp", "system": "HEK293T, homomeric receptor", "IC50": "5370 nM"}
{"Compound": "CCCCCC(=O)Nc1ccc(Nc2ncc(F)c(-c3cc(F)c4nc(C)n(C(C)C)c4c3)n2)cc1", "target": "CDK4", "IC50": "2.5 nM"}
{"Compound": "Fc1ccc2nc(NCCCN[C@@H]3CCOc4c(Cl)cc(Cl)cc43)[nH]c2n1", "target": "MARS2", "test": "enzyme activity, inhibitor", "IC50": "20.5 nM"}
{"Compound": "CC(C)C[C@H](NC(=O)[C@@H](CCCCNC(=O)[C@@H](Cc1ccccc1)NC(=O)CCNC(=O)CN1CCN(CC(=O)O)CCN(CC(=O)O)CCN(CC(=O)O)CC1)NC(=O)[C@H](Cc1ccc(O)cc1)NC(=O)[C@H](CO)NC(=O)[C@H](Cc1c[nH]c2ccccc12)NC(=O)[C@H](Cc1c[nH]cn1)NC(=O)[C@@H]1CCC(=O)N1)C(=O)N[C@@H](CCCNC(=N)N)C(=O)N1CCC[C@H]1C(=O)NCC(N)=O", "target": "GNRHR", "test": "ligand displacement, radioligand", "conditions": "pH 7.4, cell membranes", "IC50": "13.5 nM"}
{"Compound": "Cc1nc2c(F)cc(-c3nc(Nc4ccc(CNC(=O)CCCC(=O)NO)cc4)ncc3F)cc2n1C(C)C", "target": "CDK4", "IC50": "0.41 nM"}
{"Compound": "Nc1ncc2c(n1)-c1c([nH]c3ccc(C4=CCOCC4)cc13)CCC2", "target": "Dual specificity tyrosine-phosphorylation-regulated kinase 1A (DYRK1A, Homo sapiens, UniProt Q13627)", "test": "enzyme activity, inhibitor, radiometric", "IC50": "520 nM"}
{"Compound": "O=C(Cc1ccc(OCc2ccccc2)cc1)NC1(C(=O)O)CCN(C(=O)c2ccc(-c3cccc(Cl)c3)cc2)CC1", "target": "GNRHR", "test": "IP-1 accumulation, antagonist", "IC50": "> 10000 nM"}
{"Compound": "COc1ccc(-c2cc(OCC(=O)N(C)Cc3cccnc3C)nc(-n3nc(C)cc3C)n2)cc1", "target": "Leucyl-cystinyl aminopeptidase (LNPEP, Homo sapiens, UniProt Q9UIQ6)", "test": "10mer peptide trimming, HPLC", "conditions": "45 min, 37 °C, added: peptide 30 µM", "IC50": "34000 nM"}
{"Compound": "COC(=O)CCCCCCC(=O)Nc1cccc(Nc2ncc(F)c(-c3cc(F)c4nc(C)n(C(C)C)c4c3)n2)c1", "target": "CDK4", "IC50": "4.9 nM"}
{"Compound": "C[C@H]1CN(c2cc(=O)n(C)c3ccc(C#N)nc23)[C@@H](C)CN1Cc1ccc(S(=O)(=O)n2cnc(C3CC3)n2)cc1", "target": "Diacylglycerol kinase alpha (DGKA, Homo sapiens, UniProt P23743)", "test": "inhibitor, ADP-Glo", "conditions": "added: DAG micelles", "IC50": "2320 nM"}
{"Compound": "N#CN1CC[C@H](C(=O)Nc2nc3c(s2)CN(C(=O)Cn2cc(CNC(=O)CCCC[C@@H]4SC[C@@H]5NC(=O)N[C@@H]54)nn2)CC3)C1", "target": "Ubiquitin carboxyl-terminal hydrolase isozyme L1 (UCHL1, Homo sapiens, UniProt P09936)", "test": "enzyme activity, inhibitor, fluorescence", "conditions": "with preincubation", "IC50": "500 nM"}
{"note": "Excerpt of the above:"}
{"Compound": "CC(C)(C)n1ncc2c(=O)n(Cc3cccc(F)c3)c(NCc3ccc(F)cn3)nc21", "target": "Cytochrome P450 3A4 (CYP3A4, Homo sapiens, UniProt P08684)", "test": "enzyme activity, inhibitor", "system": "human liver", "IC50": "> 15000 nM"}
{"Compound": "Fc1ccc2nc(NCCCN[C@@H]3CCOc4c(Cl)cc(Cl)cc43)[nH]c2n1", "target": "MARS2", "test": "enzyme activity, inhibitor", "IC50": "20.5 nM"}
{"Compound": "COC(=O)CCCCCCCNC(=O)Cc1ccc(Nc2ncc(F)c(-c3cc(F)c4nc(C)n(C(C)C)c4c3)n2)cc1", "target": "CDK4", "IC50": "3 nM"}
{"Compound": "CC(C)(COP(=O)(O)OP(=O)(O)OC[C@H]1O[C@@H](n2cnc3c(N)ncnc32)[C@H](O)[C@@H]1OP(=O)(O)O)[C@@H](O)C(=O)NCCC(=O)NCCSCC(=O)N[C@@H](CO)C(=O)NCC(=O)N[C@@H](CCCNC(=N)N)C(=O)NCC(=O)N[C@@H](CCCCN)C(N)=O", "target": "N-alpha-acetyltransferase 40 (NAA40, Homo sapiens, UniProt Q86UY6)", "test": "enzyme activity, inhibitor, fluorescence", "IC50": "116 nM"}
